Results from different studies.
Each line is one published result; not all experiments were run side by side. Numbers after ± are the reported error. Non-standard residues stand in square brackets, D forms with d. Where no end group is shown, it is not given here. No end group written: not given here. [ ]: non-standard residue; d: D form. *: point of attachment.
DLG4: DLG4 309-422 (Homo sapiens, UniProt P78352)
B1: MMP9/TIMP1 proenzyme complex 20-707 (Homo sapiens); chain 1 APRQRQSTLVLFPGDLRTNLTDRQLAEEYLYRYGYTRVAEMRGESKSLGPALLLLQKQLSLPETGELDSATLKAMRTPRCGVPDLGRFQTFEGDLKWHHHNITYWIQNYSEDLPRAVIDDAFARAFALWSAVTPLTFTRVYSRDADIVIQFGVAEHGDGYPFDGKDGLLAHAFPPGPGIQGDAHFDDDELWSLGKGVVVPTRFGNADGAACHFPFIFEGRSYSACTTDGRSDGLPWCSTTANYDTDDRFGFCPSERLYTQDGNADGKPCQFPFIFQGQSYSACTTDGRSDGYRWCATTANYDRDKLFGFCPTRADSTVMGGNSAGELCVFPFTFLGKEYSTCTSEGRGDGRLWCATTSNFDSDKKWGFCPDQGYSLFLVAAHEFGHALGLDHSSVPEALMYPMYRFTEGPPLHKDDVNGIRHLYGPRPEPEPRPPTTTTPQPTAPPTVCPTGPPTVHPSERPTAGPTGPPSAGPTGPPTAGPSTATTVPLSPVDDACNVNIFDAIAEIGNQLYLFKDGKYWRFSEGRGSRPQGPFLIADKWPALPRKLDSVFEERLSKKLFFFSGRQVWVYTGASVLGPRRLDKLGLGADVAQVTGALRSGRGKMLLFSGRRLWRFDVKAQMVDPRSASEVDRMFPGVPLDTHDVFQYREKAYFCQDRFYWRVSSRSELNQVDQVGYVTYDILQCPED; chain 2 CTCVPPHPQTAFCNSDLVIRAKFVGTPEVNQTTLYQRYEIKMTKMYKGFQALGDAADIRFVYTPAMESVCGYFHRSHNRSEEFLIAGKLQDGLLHITTCSFVAPWNSLSLAQRRGFTKTYTVGCEECTVFPCLSIPCKLQSGTHCLWTDQLLQGSEKGFQSRHLACLPREPGLCTWQSLRSQIA
B2: Reln 1948-2662 R2193A/K2194A (Mus musculus, UniProt Q60841); chain DGNNLNNPVLLLDTFDFGPREDNWFFYPGGNIGLYCPYSSKGAPEEDSAMVFVSNEVGEHSITTRDLSVNENTIIQFEINVGCSTDSSSADPVRLEFSRDFGATWHLLLPLCYHSSSLVSSLCSTEHHPSSTYYAGTTQGWRREVVHFGKLHLCGSVRFRWYQGFYPAGSQPVTWAIDNVYIGPQCEEMCYGHGSCINGTKCICDPGYSGPTCKISTKNPDFLKDDFEGQLESDRFLLMSGGKPSAACGILSSGNNLFFNEDGLRMLVTRDLDLSHARFVQFFMRLGCGKGVPDPRSQPVLLQYSLNGGLSWSLLQEFLFSNSSNVGRYIALEMPLKARSGSTRLRWWQPSENGHFYSPWVIDQILIGGNISGNTVLEDDFSTLDSRKWLLHPGGTKMPVCGSTGDALVFIEKASTRYVVTTDIAVNEDSFLQIDFAASCSVTDSCYAIELEYSVDLGLSWHPLVRDCLPTNVECSRYHLQRILVSDTFNKWTRITLPLPSYTRSQATRFRWHQPAPFDKQQTWAIDNVYIGDGCLDMCSGHGRCVQGSCVCDEQWGGLYCDEPETSLPTQLKDNFNRAPSNQNWLTVSGGKLSTVCGAVASGLALHFSGGCSRLLVTVDLNLTNAEFIQFYFMYGCLITPSNRNQGVLLEYSVNGGITWNLLMEIFYDQYSKPGFVNILLPPDAKEIATRFRWWQPRHDGLDQNDWAIDNVLIS
B3: HSPB8 (Homo sapiens, UniProt Q9UJY1); sequence looked up; chain MADGQMPFSCHYPSRLRRDPFRDSPLSSRLLDDGFGMDPFPDDLTASWPDWALPRLSSAWPGTLRSGMVPRGPTATARFGVPAEGRTPPPFPGEPWKVCVNVHSFKPEELMVKTKDGYVEVSGKHEEKQQEGGIVSKNFTKKIQLPAEVDPVTVFASLSPEGLLIIEAPQVPPYSTFGESSFNNELPQDSQEVTCT
B4: metQ mature N229A (Escherichia coli, UniProt P28635); fluorescein label Cys23; sequence looked up; chain CGQDEKDPNHIKVGVIVGAEQQVAEVAQKVAKDKYGLDVELVTFNDYVLPNEALSKGDIDANAFQHKPYLDQQLKDRGYKLVAVGNTFVYPIAGYSKKIKSLDELQDGSQVAVPNDPTNLGRSLLLLQKVGLIKLKDGVGLLPTVLDVVENPKNLKIVELEAPQLPRSLDDAQIALAVINTTYASQIGLTPAKDGIFVEDKESPYVALIVTREDNKDAENVKKFVQAYQSDEVYEAANKVFNGGAVKGW
B5: Fermt2 F0 1-97 (Mus musculus, UniProt Q8CIB5); Atto520 label; sequence looked up; chain MALDGIRMPDGCYADGTWELSVHVTDLNRDVTLRVTGEVHIGGVMLKLVEKLDVKKDWSDHALWWEKKRTWLLKTHWTLDKCGIQADAKLQFTPQHK
B6: SPT5 residues 801-898 (Schizosaccharomyces pombe, UniProt O13936); chain SLISTADGPNVPNWAQGARTPAVANGSRTPAWNTGSRTPAWNSGSKTPAWNSGSRTPAWNSGNKTPAWNAGSRTPAWNSGNKTPAWNVGNKTPAWNSGAK
B7: MYH7 839-968 (Homo sapiens, UniProt P12883); sequence looked up; chain LLKSAEREKEMASMKEEFTRLKEALEKSEARRKELEEKMVSLLQEKNDLQLQVQAEQDNLADAEERCDQLIKNKIQLEAKVKEMNERLEDEEEMNAELTAKKRKLEDECSELKRDIDDLELTLAKVEKEK
B8: CR2 21-154 (Homo sapiens, UniProt P20023); sequence looked up; chain ISCGSPPPILNGRISYYSTPIAVGTVIRYSCSGTFRLIGEKSLLCITKDKVDGTWDKPAPKCEYFNKYSSCPEPIVPGGYKIRGSTPYRHGDSVTFACKTNFSMNGNKSVWCQANNMWGPTRLPTCVSVFPLEC

`rpn10 (Schizosaccharomyces pombe, UniProt O94444)` gave a Kd of 61.1 ± 9.3 µM (rpn12 1-250 K29A/Q76A, Oregon Green label (Schizosaccharomyces pombe, UniProt P50524); fluorescence polarization; 0-370 µM, 20 min, pH 7.4, 25 °C, NaCl 150 mM).
The Kd of `B1` is reported as 0.023 µM (LRP1 (Homo sapiens, UniProt Q07954); SPR; 25 °C, bivalent model).
`B2 (Reln 1948-2662 R2193A/K2194A)` has a Kd of 0.16 µM (LRP8 ectodomain, lacking LA4-6 (Homo sapiens); SPR; steady-state affinity).
With `ribosomes whole ribosome (Rattus norvegicus)` the Kd was 0.5 ± 0.0462 µM (CRIP3 precursor 22-286 (Zea mays, UniProt P28522); SPR; ribosomes).
The Kd of `SGRGK(Ac)GGKGL (histone H4 residues 1-10; acetylated K5)` is reported as 210 µM (ATAD2 bromodomain 981-1108 C1101A, Cys1057-Cys1079 disulfide (Homo sapiens, UniProt Q6PL18); ITC; peptide; pH 7.0, 5 °C, NaCl 150 mM).
The Kd of `Il2rg extracellular domain (Mus musculus) (sequence not shown)` is reported as 695 ± 76 µM (Il2rb fragment (Mus musculus); SPR; 25 °C, monomeric form, single-site fit).
With `histone H3 fragment, K36me2 (sequence not shown)` the Kd was 1140 ± 390 µM (MORF4L1 fragment (Homo sapiens); NMR titration; pH 7.5, 25 °C).
The Kd of `TKDELTKIMDRASKIEQIQKLAKYAISALNYEDLPTAKDELTKALDLLNSI (VTA1 280-330 (Saccharomyces cerevisiae, UniProt Q06263); sequence looked up)` is reported as 280 ± 12 µM (VPS4 299-415 H359D (Saccharomyces cerevisiae, UniProt P52917); SPR; pH 7.0, NaCl 150 mM, equilibrium fit).
With `B3 (HSPB8)` the Kd was 1.2 µM (BAG3 (Homo sapiens, UniProt O95817); ITC; 25 °C, relative values).
`{5‑TAMRA-Ahx}-NLSELDRLLDELN (PXN residues 141-153 L10D; N-terminal TAMRA, aminohexanoyl linker; 5‑TAMRA = CN(C)c1ccc2c(-c3ccc(C(=O)*)cc3C(=O)[O-])c3ccc(N(C)C)cc3[o+]c2c1; Ahx = NCCCCCC(=O)O)` gave a Kd of 82.3 µM (PTK2 892-1052 L994E (Homo sapiens, UniProt Q05397); fluorescence polarisation; peptide).
`CGSFPPWVKKTEV (peptide; cyclic)` has a Kd of 0.0653 µM (DLG4; SPR; peptide).
`CKNYKKTEV (CRIPT C-terminal PBM; cyclic Lys-Glu lactam)` gave a Kd of 0.384 µM (DLG4; SPR; peptide; pH 7.5, NaCl 100 mM).
With `EDFRSGSEAFDLIAQDEEEFNK (CEP192 506-527 (Homo sapiens, UniProt Q8TEP8))` the Kd was 15.8 µM (AURKA kinase domain 123-403, phosphorylated (Homo sapiens, UniProt O14965); ITC).
With `TKDELTKIMDRASKIEQIQKLAKYAIRALNYEDLPTAKDELTKALDLLNSI (VTA1 280-330 S306R (Saccharomyces cerevisiae, UniProt Q06263); sequence looked up)` the Kd was over 1000 µM (VPS4 299-415 (Saccharomyces cerevisiae, UniProt P52917); SPR; pH 7.0, NaCl 150 mM, equilibrium fit).
`B4 (metQ mature N229A)` has a Kd of 0.3 µM (metN/metI E166Q/N295A (Escherichia coli); fluorescence polarisation; DDM micelles; NaCl 150 mM, substrate-free partner, ATP-bound state, added: ATP 5 mM, EDTA 10 mM).
For `S100A4, QSY 35 on amines (Homo sapiens, UniProt P26447)`, the Kd was 0.0836 µM (SRXN1, Alexa 546 label (Homo sapiens, UniProt Q9BYN0); FRET; apparent, with EGTA).
With `AR[pT][Lys(Me3)]QTARKSTG (histone H3 2-13 (UniProt P68431); pT3/K4me3; pT = C[C@@H](OP(=O)(O)O)[C@H](N)C(=O)O; Lys(Me3) = C[N+](C)(C)CCCC[C@H](N)C(=O)O; sequence looked up)` the Kd was 174 µM (PHF8 PHD finger 37-106 (Homo sapiens, UniProt Q9UPP1); NMR titration; peptide).
`EGPIALKFSHLCLEDHNSYCINGACAFHHELEKAICRCFTGYTGERCEHLTLTSYAVDSY (EPGN EGF domain 49-109 (Homo sapiens))` gave a Kd of 2.8 µM (EGFR 25-525 (Homo sapiens, UniProt P00533); ITC; pH 8.0, 4 °C, NaCl 150 mM, single-site model).
The Kd of `B5 (Fermt2 F0 1-97)` is reported as 1.92 ± 0.628 µM (Pxn, Atto520 label (Mus musculus, UniProt Q8VI36-2); ITC).
For `SYK tandem SH2 domains`, the Kd was 0.256 µM (CLEC1B fragment, pY7 (Homo sapiens); SPR; equilibrium Kd).
The Kd of `IL31RA Fc fusion, CBD with 1 FNIII (Felis catus)` is reported as 0.106 µM (IL31 residues 1-136 (Felis catus); flow cytometry; yeast).
For `B6 (SPT5 residues 801-898)`, the Kd was 0.18 ± 0.06 µM (pce1/rpb1 CTD four heptads, Pce1-GMP, pSer5, N-terminal BODIPY-FL (Schizosaccharomyces pombe); fluorescence polarisation).
`TREM2 fragment (Homo sapiens)` gave a Kd of 2.6 ± 0.3 µM (amyloid beta 42 fibrils (UniProt P05067); co-sedimentation; apparent).
With `B7 (MYH7 839-968)` the Kd was 200 ± 30 µM (MYH7/MYL3 sS1 1-808 H251N (Homo sapiens); MST; pH 7.5, KCl 100 mM, Hill fit, added: ADP 500 µM).
With `IGLQERRGSNVSLTLDM (PTPRR KIM peptide)` the Kd was 2.84 ± 0.135 µM (MAPK14 unphosphorylated (UniProt Q16539); ITC; peptide; 25 °C).
`B8 (CR2 21-154)` has a Kd of 0.87 µM (FCER2 156-298 (Homo sapiens, UniProt P06734); SPR; pH 7.4, 25 °C, NaCl 150 mM).
`TPTPSARRTIGPRAPKSKTTY (Cdc12 residues 20-40 (Schizosaccharomyces pombe))` gave a Kd of 5 µM (cdc15 19-312 E30K/E152K (Schizosaccharomyces pombe, UniProt Q09822); ITC; peptide; pH 8.0, 25 °C, NaCl 100 mM).
For `ART[Lys(Me)]QTARKSTG (histone H3 2-13 (UniProt P68431); K4me1; Lys(Me) = CNCCCC[C@H](N)C(=O)O; sequence looked up)`, the Kd was 9.1 ± 1 µM (BIRC5 1-142 (Homo sapiens, UniProt O15392); ITC; peptide; pH 7.2).
